{"data": "Measured values pooled from the literature", "note": "Every numbered part comes from another study and shows a few of its results, in no order."}
{"data": "Series 1", "target": "RING finger protein unkempt homolog, zinc fingers 1-6, GST-SBP tag (UNK, Homo sapiens, UniProt Q9C0B0, residues 30-357)", "method": "RNA Bind-n-Seq", "molecule type": "RNA", "sample": "in vitro", "tested at": "not given", "setting": "RNA with constant flanks, ends assumed", "relative to": "input RNA pool", "reading": "higher = stronger binding", "shared flanks, not repeated": "GGGAGUUCUACAGUCCGACGAUC … CAACAGAGGAUUGAGCAUCA", "sequence of UniProt Q9C0B0 (30-357, looked up)": "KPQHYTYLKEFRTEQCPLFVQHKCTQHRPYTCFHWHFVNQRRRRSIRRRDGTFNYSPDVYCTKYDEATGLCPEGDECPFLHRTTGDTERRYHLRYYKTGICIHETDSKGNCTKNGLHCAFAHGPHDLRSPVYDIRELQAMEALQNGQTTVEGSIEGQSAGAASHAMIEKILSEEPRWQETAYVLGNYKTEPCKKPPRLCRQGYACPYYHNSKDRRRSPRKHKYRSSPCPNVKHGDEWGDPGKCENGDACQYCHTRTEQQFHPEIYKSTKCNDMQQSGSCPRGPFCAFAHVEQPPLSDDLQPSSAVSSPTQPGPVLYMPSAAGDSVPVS"}
{"Sequence": "CCUGGUAAAUCUCAGGCAUCUAAUUUGAGAAAACGAGAAACCACAGCGUCUUCUAAAACAGCCGCAGCCAGGUCAGCACAGAAUCAGCCUCGGAAAGAAGAUCAGAAGAGAGCCUUCGUG", "bound/input enrichment [ratio]": 0.125}
{"Sequence": "CCUGCCUUCUCAUCUUUAUAGUGCCACGAUUUAUACAGUCCUGUGUCUGACCUGUCAUUUCACCGCCUGCAGUUCUUGCCAUUGGCACACUUAGAUUUGUCUUCACCCACCAGCUUCGUU", "bound/input enrichment [ratio]": 0.587}
{"Sequence": "GUAAUGGACGUUAAUACUGCUUUACAAGAGGUUCUGAAGACUGCCCUCAUCCACGAUGGCCCCGCACGUGGAAUUCGCGAAGCUGCCAAAGCCUUAGACAAGCGCCAAGCCCAUCUUUGU", "bound/input enrichment [ratio]": 0.194}
{"Sequence": "ACUGUGAAGGAAGAAAAAAGUUGGCAUUUCUUGGUCCUCCGUUCAUAACACAAAGCAGAGCCGUAUUUUUAUAUUUAAAUGUUAAAAACAAAAAAGUUAUAUAUAUAUGGAUGUGUGGAU", "bound/input enrichment [ratio]": 0.491}
{"Sequence": "CUCAAUACCAUUCCAUUGUUUGUGCAGUUGCUUUAUUCUCCCAUUGAAAAUAUCCAAAGAGCCGCUGCAGGGGUCCUCUGUGAACUUGCUCAGGACAAGGAGGCUGCAGAGGCCAUUGAA", "bound/input enrichment [ratio]": 0.52}
{"Sequence": "UUAAUGUUCUUAAUAAAGUGUUCUUGGAGUUGAACCUAGCAGCGGAUGGCUUUCUUCCGCUCCGCCCAGUUUCCAGGGAAGCGUUGUUUCUCCAGGCUGUAAAAUGGCAGACUCUCCUGG", "bound/input enrichment [ratio]": 0.278}
{"data": "Series 2", "target": "Histone acetyltransferase KAT6A, winged helix 1, GST fusion (KAT6A, Homo sapiens, UniProt Q92794, residues 1-85)", "method": "protein binding microarray", "molecule type": "double-stranded DNA, one strand shown", "sample": "in vitro", "tested at": "not given", "setting": "8-mer, flanks averaged, mean of 2 arrays, mostly near background", "relative to": "not given", "reading": "higher = stronger binding", "Construct (chain)": "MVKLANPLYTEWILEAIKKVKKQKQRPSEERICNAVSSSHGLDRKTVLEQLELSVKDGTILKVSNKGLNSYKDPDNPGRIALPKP"}
{"Sequence": "ACGCTGCC", "E-score": 0.221}
{"Sequence": "CATTCTGC", "E-score": 0.00635}
{"Sequence": "ACGTTACT", "E-score": -0.0784}
{"Sequence": "GCGTACGA", "E-score": 0.235}
{"Sequence": "CGAGATTC", "E-score": -0.0258}
{"Sequence": "CACTAAGC", "E-score": -0.172}
{"data": "Series 3", "target": "Sal-like protein 4, full length isoform B (SALL4, Homo sapiens, UniProt Q9UJQ4-2, residues 1-616)", "method": "universal PBM", "molecule type": "double-stranded DNA, one strand shown", "sample": "in vitro", "tested at": "not given", "setting": "8-mer, flanks averaged, mean of replicates", "reading": "higher = stronger binding", "Residues (chain)": "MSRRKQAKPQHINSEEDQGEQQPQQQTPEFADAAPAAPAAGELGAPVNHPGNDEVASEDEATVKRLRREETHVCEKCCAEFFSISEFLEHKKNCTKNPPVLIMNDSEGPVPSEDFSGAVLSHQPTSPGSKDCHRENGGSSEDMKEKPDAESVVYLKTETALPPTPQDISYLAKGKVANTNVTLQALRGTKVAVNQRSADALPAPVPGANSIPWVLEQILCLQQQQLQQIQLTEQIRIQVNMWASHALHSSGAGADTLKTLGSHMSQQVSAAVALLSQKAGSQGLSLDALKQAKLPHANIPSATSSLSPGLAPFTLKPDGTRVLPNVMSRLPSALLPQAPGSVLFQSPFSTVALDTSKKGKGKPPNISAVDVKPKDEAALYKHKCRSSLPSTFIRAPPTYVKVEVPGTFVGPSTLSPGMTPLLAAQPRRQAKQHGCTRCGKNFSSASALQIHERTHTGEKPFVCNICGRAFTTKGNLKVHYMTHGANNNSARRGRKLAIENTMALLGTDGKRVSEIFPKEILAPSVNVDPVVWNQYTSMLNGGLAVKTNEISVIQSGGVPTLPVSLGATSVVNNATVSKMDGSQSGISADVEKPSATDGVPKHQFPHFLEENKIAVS"}
{"Sequence": "TGCACAAA", "E-score": 0.242}
{"Sequence": "ACAGAGCT", "E-score": -0.218}
{"Sequence": "CCCAGCCG", "E-score": -0.345}
{"Sequence": "GATGAGGC", "E-score": -0.143}
{"Sequence": "AGGGGAAG", "E-score": -0.212}
{"Sequence": "AACCTTCT", "E-score": -0.141}
{"Sequence": "GATGAAAC", "E-score": 0.089}
{"data": "Single results of other studies"}
{"Substance": "PhoQ, residues 284 288 289 292 302 303 ASVMEA", "target": "PhoP, residues 12 14 15 18 19 YHFSH (Escherichia coli, UniProt P23836)", "assay": "Sort-seq, refers to: YFP reporter", "system": "E. coli", "conditions": "PhoQ-PhoP variant library, added: 10 µM Mg2+", "how to read": "relative to: high Mg2+ state, higher = stronger signaling", "endpoint": "fold induction", "value": 6.68}
{"note": "For quick reference, copied from above (series 3):"}
{"Sequence": "AGGGGAAG", "E-score": -0.212}
{"Sequence": "AACCTTCT", "E-score": -0.141}
{"Sequence": "GATGAAAC", "E-score": 0.089}
